Measured values pooled from the literature.
Numbered parts are unrelated; each lists some results of a single study. Substitutions count along the parent as printed.
Chain of UniProt O15294 (whole entry, looked up): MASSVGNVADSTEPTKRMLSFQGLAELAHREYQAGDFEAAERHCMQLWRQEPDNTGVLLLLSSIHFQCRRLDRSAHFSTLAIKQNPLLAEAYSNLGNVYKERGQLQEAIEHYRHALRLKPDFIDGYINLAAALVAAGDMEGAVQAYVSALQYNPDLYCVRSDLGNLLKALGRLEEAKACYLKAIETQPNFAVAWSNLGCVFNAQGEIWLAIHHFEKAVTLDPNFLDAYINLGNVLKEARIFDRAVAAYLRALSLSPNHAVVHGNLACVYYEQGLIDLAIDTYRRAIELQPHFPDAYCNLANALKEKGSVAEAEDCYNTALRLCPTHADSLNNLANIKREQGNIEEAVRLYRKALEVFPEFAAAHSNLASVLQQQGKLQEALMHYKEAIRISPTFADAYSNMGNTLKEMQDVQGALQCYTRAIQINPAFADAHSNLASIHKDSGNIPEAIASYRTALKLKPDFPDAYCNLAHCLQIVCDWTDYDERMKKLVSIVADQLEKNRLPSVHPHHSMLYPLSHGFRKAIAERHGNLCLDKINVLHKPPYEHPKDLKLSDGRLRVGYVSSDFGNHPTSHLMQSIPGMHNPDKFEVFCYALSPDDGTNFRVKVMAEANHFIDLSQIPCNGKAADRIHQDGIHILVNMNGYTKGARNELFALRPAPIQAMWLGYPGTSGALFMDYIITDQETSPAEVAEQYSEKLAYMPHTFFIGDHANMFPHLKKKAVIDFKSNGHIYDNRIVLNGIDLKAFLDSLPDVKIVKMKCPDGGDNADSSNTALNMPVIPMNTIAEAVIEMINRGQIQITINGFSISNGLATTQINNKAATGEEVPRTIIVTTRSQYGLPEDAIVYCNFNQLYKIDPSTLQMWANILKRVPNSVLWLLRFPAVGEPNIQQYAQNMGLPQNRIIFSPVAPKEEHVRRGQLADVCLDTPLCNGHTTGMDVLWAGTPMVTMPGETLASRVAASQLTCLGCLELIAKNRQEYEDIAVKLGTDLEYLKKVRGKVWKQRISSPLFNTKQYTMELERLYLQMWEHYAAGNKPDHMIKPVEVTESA

Series 1 — target: CCNE1, cyclin fold, Cln2 fusion (human); technique: yeast growth competition, sequencing; matrix: yeast; notes: strong parent motif; relative to: not given; direction: higher = stronger binding; quantity: normalised enrichment score
Starting sequence: E2F1 docking peptide (human); PPVKRRLDLETDH; partner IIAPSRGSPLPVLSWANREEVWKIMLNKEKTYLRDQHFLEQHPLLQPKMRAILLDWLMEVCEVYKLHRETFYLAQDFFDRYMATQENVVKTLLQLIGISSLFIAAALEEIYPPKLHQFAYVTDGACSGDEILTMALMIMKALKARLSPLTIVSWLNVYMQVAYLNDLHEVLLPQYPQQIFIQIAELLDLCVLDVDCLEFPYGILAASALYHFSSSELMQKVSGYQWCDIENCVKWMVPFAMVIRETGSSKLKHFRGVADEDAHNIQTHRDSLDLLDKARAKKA
D8Q: 1.48
D12L: 1.69
D8N: 2.92
D12C: 1.92
E10P: 0.79
R6V: 1.76
D12W: 1.42
H13E: 2.35

Series 2 — technique: RNA Bind-n-Seq; molecule type: RNA; matrix: in vitro; tested at: 365 nM; relative to: no-protein control; direction: higher = stronger binding; quantity: RBNS enrichment (R)
Target: RNA binding protein fox-1 homolog 2, RRM domain, GST-SBP tag (RBFOX2, Homo sapiens, UniProt O43251-10, residues 100-194)
Notes: natural RNA segment, single round, ends assumed
Constant ends, left off below: GGGAGUUCUACAGUCCGACGAUC … UGGAAUUCUCGGGUGCCAA
Construct (chain): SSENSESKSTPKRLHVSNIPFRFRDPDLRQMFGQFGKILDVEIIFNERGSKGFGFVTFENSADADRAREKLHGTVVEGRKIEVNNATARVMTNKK
GCCUCAGAGCUCAGUCUUGCCAAGGUGGAGAAAUUCUGGUCGAAGAGGUUGACCGGUAGACUGAAGAGGCCUUGAGAGCCUGGCCAGGUGGCUGUCCACGUGAGGUCAUA: 0.31
AACUGCUUUUAUGCAGGCUUUACCCCUGAAAAACUCCUUUCUACAGUGCUGCUCACGAGAGCCCAGCCAGUCUCAUGCCUGCAUUGCUGACUUGAACUCACAGUCGCCAA: 0.425
CAGCCUCCCUGAAACACAGCAGCCCCCCUUACUAAUCACAGGCACAAAUGGAGAGGAAGGGGUCCCUGUGGAGGACCCAACCACAGAAUCUGAGGUGUUCAGAAUCUGAC: 0.51
CUGCCGCCUUUGCUUUUGGUUGGGGGCAGAUUGGGUUGGAAUGCUUUCCAUCUCCAGGAGACUUUCAUGCAGCCUAAAGUACAGCCUGGACCACCCCUGGUGUGUAGCUA: 0.426
GCUCCAGUAAUAUCUUGCCCGAAAAGUGGUCGUCUUCCAAGCAUGGUGUUCUGGGUCCCAGCCUUGUCUUAUCGCCUGUCCUGUCAGUGUCCAACCACACGGUGGCUUGG: 2.3
CAUUGAAGCUCUCUGAGUUCUUUGAUUUUAAGUUGGGUUUAUGGAAUUUUUUCAAAUGUUGGAAGGUGUGUGGUUCUUCCUGCCCUCCCUCCCCUUUUGGAAAUAUGAAA: 0.464
UCUUUCUACAACUGUGUUCUGUGACUCAAUUGUAUCGUGUUAAUAUCAGUGCAGACUGUCUCCUCUACGUGACCGUAUAAUGUUUUUCUCUUCUUGUAGUCUCUAUGGCG: 0.886
GGGCUGGGGGUUGGACGGGAUUGAGGAAGGUCCGCACAGCCUGUCUCUGCUCAGUUGCAAUAAACGUGACAUCUUGGGAGCGUUCCCCAGAGUUUGUCUGCUUCUAGAAC: 0.483

Series 3 — technique: aptamer microarray, sandwich; molecule type: DNA with 2'F-ANA; matrix: in vitro; tested at: 200 nM; added: Cy3 exosite-II aptamer, 400 nM; direction: higher = stronger binding; quantity: mean fluorescence intensity; oligonucleotide: GGTTGGTGTGGTTGG
Target: Prothrombin, mature alpha-thrombin (F2, Homo sapiens, UniProt P00734)
Notes: whole 15-mer aptamer, many near background
2'F-ANA at 1 3 4 5 7 8 13 14: 49.9 a.u.
2'F-ANA at 4 7 8 10 12 13 15: 95.6 a.u.
2'F-ANA at 3 4 6 8 9 10 13 14 15: 158 a.u.
2'F-ANA at 1 7 8 9 12 13 14 15: 77.1 a.u.
2'F-ANA at 8 13 14: 178 a.u.
2'F-ANA at 2 3 4 6 7 11 14: 262 a.u.
2'F-ANA at 2 4 5 6 7 10 11 12 13: 92 a.u.
2'F-ANA at 1 2 3 8 9 10 11 12 15: 86.1 a.u.

Other studies, line by line
FPHHPQDHMRLNVFT  enrichment fold change (UDP-N-acetylglucosamine--peptide N-acetylglucosaminyltransferase 110 kDa subunit (OGT, Homo sapiens, UniProt O15294); binding, phage display NGS; peptide; concentration not given; relative to: input library): 3.11

Some of these lines once more (series 2):
GCCUCAGAGCUCAGUCUUGCCAAGGUGGAGAAAUUCUGGUCGAAGAGGUUGACCGGUAGACUGAAGAGGCCUUGAGAGCCUGGCCAGGUGGCUGUCCACGUGAGGUCAUA: 0.31
CAGCCUCCCUGAAACACAGCAGCCCCCCUUACUAAUCACAGGCACAAAUGGAGAGGAAGGGGUCCCUGUGGAGGACCCAACCACAGAAUCUGAGGUGUUCAGAAUCUGAC: 0.51
